Assay results from different studies.
Compare with care: the assays were run in different laboratories. Values joined by “and” are separate records of one study, mostly repeats; a detail may differ. Numbers after ± are the reported error.

SMILES = CC[C@H](C)[C@H](NC(=O)[C@H](Cc1ccc(O)cc1)NC(=O)[C@H](C)NC(=O)[C@H](CC(=O)O)NC(=O)[C@H](CC(C)C)NC(=O)[C@H](C)NC(=O)[C@H](C)NC(=O)[C@H](CCCCN)NC(=O)CNC(=O)[C@@H](NC(=O)[C@H](Cc1c[nH]cn1)NC(=O)[C@H](CCCCN)NC(=O)CNC(=O)[C@@H](NC(=O)[C@H](Cc1c[nH]cn1)NC(=O)[C@@H](NC(=O)[C@H](C)NC(=O)[C@H](CCCCN)NC(=O)[C@H](CCCCN)NC(=O)[C@@H](NC(=O)[C@H](Cc1c[nH]c2ccccc12)NC(=O)[C@H](CCCCN)NC(=O)[C@H](CCCNC(=N)N)NC(=O)[C@H](Cc1c[nH]c2ccccc12)NC(=O)CN)[C@@H](C)CC)[C@@H](C)O)C(C)C)[C@@H](C)CC)C(N)=O; test system = zebrafish embryos 4 hpf, E3 medium; setting = 24 h; measurement = chronic toxic concentration; value = 5 µM
SMILES = O=C1NC2(CC2)COc2ncc(F)cc2[C@H]2COCCN2c2ccn3ncc1c3n2; test system = Sprague-Dawley rat, female, serum; setting = oral, 10 mg/kg/day, 4 weeks daily, end of treatment; measurement = pancreatic amylase activity; value = 1380 ± 366 U/L
SMILES = CC(C)=CCC/C(C)=C/CCn1cc(CC(C)(P(=O)(O)O)P(=O)(O)O)nn1; test system = mouse CD-1; setting = intravenous, 0.3 mg/kg, 8 h; scale = relative to: dose; measurement = biliary excretion; value = 0.81%
SMILES = CN[C@H](CC(C)C)C(=O)N[C@H]1C(=O)N[C@@H](CC(N)=O)C(=O)N[C@H]2C(=O)N[C@H]3C(=O)N[C@H](C(=O)N[C@H](C(=O)O)c4cc(O)cc(O)c4-c4cc3ccc4O)[C@H](O)c3ccc(c(Cl)c3)Oc3cc2cc(c3O[C@@H]2O[C@H](CO)[C@@H](O)[C@H](O)[C@H]2O[C@H]2C[C@](C)(NCc3ccc(-c4ccc(Cl)cc4)cc3)[C@H](O)[C@H](C)O2)Oc2ccc(cc2Cl)[C@H]1O; test system = mouse, plasma; setting = intravenous, 10 mg/kg; measurement = clearance; value = 1.23 mL/min/kg
SMILES = COc1ccc(CNc2ccc3c(c2)S(=O)(=O)C=C3)cc1; test system = male C57BL/6 mice, blood; setting = intraperitoneal, 5 mg/kg, day 8, group average; measurement = red cell distribution width CV; value = 0.14%
SMILES = CSCC[C@H](NC(=O)[C@@H](NC(=O)[C@H](CC(C)C)NC(=O)[C@@H](NC(=O)[C@H](Cc1c[nH]cn1)NC(=O)CCCCCNC(=O)[C@H](CCCNC(=N)N)NC(=O)[C@H](CCCNC(=N)N)NC(=O)[C@H](CCCNC(=N)N)NC(=O)[C@H](CCC(N)=O)NC(=O)[C@H](CCCNC(=N)N)NC(=O)[C@H](CCCNC(=N)N)NC(=O)[C@H](CCCCN)NC(=O)[C@H](CCCCN)NC(=O)[C@H](CCCNC(=N)N)NC(=O)CNC(=O)[C@@H](N)Cc1ccc(O)cc1)C(C)C)C(C)C)C(=O)N[C@@H](CS)C(=O)N[C@@H](C)C(=O)N[C@H](C(N)=O)[C@@H](C)O; test system = C57BL/6J mice; setting = Alzet osmotic pump, 3 mg/kg, 8 weeks; measurement = ALT; value = 19 U/L and 24 U/L and 30 U/L
SMILES = CSCC[C@H](N)C(=O)N[C@@H](C)C(=O)N[C@@H](CCCNC(=N)N)C(=O)N[C@@H](CCCNC(=N)N)C(=O)N[C@@H](CC(=O)O)C(=O)N[C@@H](CCCCN)C(=O)N[C@H](C(=O)N[C@@H](CC(=O)O)C(=O)N[C@@H](Cc1ccccc1)C(=O)N[C@@H](C)C(=O)N[C@@H](CCCNC(=N)N)C(=O)N[C@@H](CCCNC(=N)N)C(=O)N[C@@H](CCCNC(=N)N)C(=O)N[C@@H](CCCNC(=N)N)C(=O)NCCCCCC(=O)NCCCCC(NC(=O)CCCCCNC(=O)[C@H](CCCNC(=N)N)NC(=O)[C@H](CCCNC(=N)N)NC(=O)[C@H](CCCNC(=N)N)NC(=O)[C@H](CCCNC(=N)N)NC(=O)[C@H](C)NC(=O)[C@H](Cc1ccccc1)NC(=O)[C@H](CC(=O)O)NC(=O)[C@@H](NC(=O)[C@H](CCCCN)NC(=O)[C@H](CC(=O)O)NC(=O)[C@H](CCCNC(=N)N)NC(=O)[C@H](CCCNC(=N)N)NC(=O)[C@H](C)NC(=O)[C@@H](N)CCSC)[C@@H](C)O)C(=O)NCCCCC(NC(=O)C(CCCCNC(=O)CCCCCNC(=O)[C@H](CCCNC(=N)N)NC(=O)[C@H](CCCNC(=N)N)NC(=O)[C@H](CCCNC(=N)N)NC(=O)[C@H](CCCNC(=N)N)NC(=O)[C@H](C)NC(=O)[C@H](Cc1ccccc1)NC(=O)[C@H](CC(=O)O)NC(=O)[C@@H](NC(=O)[C@H](CCCCN)NC(=O)[C@H](CC(=O)O)NC(=O)[C@H](CCCNC(=N)N)NC(=O)[C@H](CCCNC(=N)N)NC(=O)[C@H](C)NC(=O)[C@@H](N)CCSC)[C@@H](C)O)NC(=O)CCCCCNC(=O)[C@H](CCCNC(=N)N)NC(=O)[C@H](CCCNC(=N)N)NC(=O)[C@H](CCCNC(=N)N)NC(=O)[C@H](CCCNC(=N)N)NC(=O)[C@H](C)NC(=O)[C@H](Cc1ccccc1)NC(=O)[C@H](CC(=O)O)NC(=O)[C@@H](NC(=O)[C@H](CCCCN)NC(=O)[C@H](CC(=O)O)NC(=O)[C@H](CCCNC(=N)N)NC(=O)[C@H](CCCNC(=N)N)NC(=O)[C@H](C)NC(=O)[C@@H](N)CCSC)[C@@H](C)O)C(N)=O)[C@@H](C)O (stereo partly drawn); test system = mouse C57BL/6 female, small intestine; setting = 3 h, radioiodinated peptide; scale = relative to: total radioactivity; measurement = tissue distribution; value = 16.3% and 10.2% and 8%
SMILES = CCn1ccc(-c2cc(-c3cnn(C)c3)cc([C@@H](C)NC(=O)c3cc(OCCN(C)C)ccc3C)c2)n1; test system = C57BL/6J mice, male, plasma; setting = oral, 50 mg/kg; measurement = AUC(0-t); value = 22800 ng·h/mL
SMILES = C=Cc1c(C)c2cc3nc(c(CC(=O)[O-])c4[n-]c(cc5nc(cc1[n-]2)C(C)=C5CC)c(C)c4C(=O)[O-])C(CCC(=O)[O-])C3C.[Cu+2].[Na+].[Na+].[Na+] (stereo not drawn); test system = Wistar rat, female; setting = oral, 500 mg/kg daily, 28 days; measurement = serum AST; value = 105 ± 20.1 U/L
SMILES = CC[C@H](C)[C@H](NC(=O)[C@H](CC(N)=O)NC(=O)[C@H](CC(C)C)NC(=O)[C@@H](NC(=O)[C@@H](N)Cc1ccccc1)[C@@H](C)CC)C(=O)N[C@@H](CC(C)C)C(=O)N[C@@H](CC(=O)O)C(=O)N[C@@H](CCCCN)C(N)=O; test system = horse erythrocytes; setting = 2 h, 37 °C; scale = relative to: Triton X-100; measurement = HC50; value = > 128 µM
SMILES = CC[C@H](C)[C@H](NC(=O)[C@H](Cc1ccc(O)cc1)NC(=O)[C@@H](NC(=O)[C@H](CCCNC(=N)N)NC(=O)[C@@H](N)CC(=O)O)C(C)C)C(=O)N[C@@H](Cc1c[nH]cn1)C(=O)N1CCC[C@H]1C(=O)O; test system = Beagle dog both sexes, plasma; setting = subcutaneous, 10 mg/kg/day, day 27, median noncompartmental; measurement = AUC; value = 749 ng·h/mL
SMILES = CC(C)[C@@H]1NC(=O)CNC(=O)[C@H](CC(N)=O)NC(=O)[C@H](CCCNC(=N)N)NC(=O)[C@H](Cc2ccc(O)cc2)NC(=O)[C@H](C(C)C)NC(=O)[C@@H](NC(=O)[C@@H](NC(=O)[C@H](CC(N)=O)NC(=O)[C@H](Cc2c[nH]c3ccccc23)NC(=O)[C@H](C)NC(=O)[C@H](Cc2ccccc2)NC(=O)CNC(=O)[C@H](CCCCN)NC(=O)[C@H](Cc2ccccc2)NC(=O)[C@H](Cc2ccccc2)NC(=O)[C@H](CCCCN)NC(=O)OCC2c3ccccc3-c3ccccc32)C(C)C)CSSC[C@@H](C(=O)N[C@@H](Cc2c[nH]cn2)C(=O)N[C@@H](CCCNC(=N)N)C(=O)N[C@@H](CCCNC(=N)N)C(=O)N[C@@H](C)C(=O)N[C@@H](CC(N)=O)C(N)=O)NC(=O)[C@H](C(C)C)NC(=O)[C@H](CCCNC(=N)N)NC1=O; test system = ICR mice, blood; setting = intraperitoneal, 5 mg/kg, day 5; measurement = neutrophils; value = 18.5 ± 1.01%

A few entries again:
SMILES = COc1ccc(CNc2ccc3c(c2)S(=O)(=O)C=C3)cc1; test system = male C57BL/6 mice, blood; setting = intraperitoneal, 5 mg/kg, day 8, group average; measurement = red cell distribution width CV; value = 0.14%
